Measurements pooled from the literature.
Compare with care: the assays were run in different laboratories. Several values in a cell are separate wells, animals, samples, runs or records.
Target: G protein-coupled receptor kinase 4 (GRK4, Homo sapiens, UniProt P32298)

For `Nc1ncc(-c2cc(-c3cnn(CC(F)(F)F)c3)ncc2F)nc1C(=O)NC1CNCC(F)C1` (centres unmarked), the remaining activity was 97.5% (enzyme activity; 1 µM; relative to: DMSO control).
`Cc1ccc(-c2c(/C=C(\C#N)C(=O)NC(C)C)n(CCCO)c3ncnc(N)c23)cc1` has a remaining binding of 81% (cell-free assay, competition with immobilised ligand; 1 µM).
The remaining binding of `C=CC(=O)N1CCc2ccc(-n3c(=O)ccc4cnc5ccc(-c6cnn(C)c6)cc5c43)cc21` is reported as 100% (KINOMEscan; 1 µM; relative to: DMSO control).
For `CNC(=O)C1CCN(c2cc(C)c(F)cc2NC(=O)c2ccc(-c3cc(O)ccc3C)c(C)c2)CC1`, the remaining binding was 99% (binding, competition with immobilised ligand; 1 µM).
With `NC(=O)C[C@H]1CCc2sc3ncnc(O[C@H]4CC[C@H](N5CCOCC5)CC4)c3c21` the inhibition was 5% (enzyme activity, inhibitor; 10 µM).
The remaining binding of `C=CC(=O)N1CCCC(n2c(=O)c3ncccc3n(Cc3ccc(Oc4ccccc4)cc3)c2=O)C1` (centres unmarked) is reported as 89% (cell-free assay, competition with immobilised ligand; 1 µM).
The remaining binding of `Nc1ncc2c(n1)-c1c([nH]c3ccc(C4=CCOCC4)cc13)CCC2` is reported as 87% (binding, competition with immobilised ligand; 1 µM).
`CCn1cc(C(=O)O)c(=O)c2c(N)c(F)c(NC3CCCCC3)cc21` has an inhibition of 4% (kinase activity; 0.1 µM, with: ATP at Km).
`CCN1CCN(Cc2ccc(C(=O)Nc3ccc(C)c(NCc4cnc5[nH]ccc5c4OC)c3)cc2C(F)(F)F)CC1` has a remaining binding of 97% (binding, competition with immobilised ligand; 1 µM).
With `C[C@H](c1ccccc1)N1C(=O)C2=Nc3cccc(Cl)c3CN2C1=S` the inhibition was at least 85% (enzyme activity, inhibitor; 1.5 µM).
`COCC12C(=O)NC3C4(C(OC)CC1O)C1CC5(O)C(OC)C(O)C(OC(C)=O)(C1C5OC(=O)c1ccccc1)C3(O)C(OC)C24` (centres unmarked) gave a remaining activity of 85% and 62% (kinase activity, inhibitor, ProQinase kinase profiling; 25 µM; relative to: control).
`O=C(Cc1ccc(OCc2ccccc2)cc1)NC1(C(=O)O)CCN(C(=O)c2ccc(-c3cccc(Cl)c3)cc2)CC1` — result for “activity vs control”: 88% (enzyme activity, inhibitor; 10 µM).
The inhibition of `C[C@H]1CN(C(=O)c2cn(-c3ccnc(N)n3)c3cc(C#CC4(O)CCCCC4)ccc23)CCN1` is reported as 36% (enzyme activity, inhibitor, FRET; 1 µM).
The inhibition of `CN1CCN(Cc2ccc(-c3ccc(CO[C@H]4CCC[C@@H]4NC(=O)c4cc(-c5cnn(C)c5)cnc4N)cc3)cc2)CC1` is reported as -8% (enzyme activity, inhibitor; 0.1 µM).
For `C=CC(=O)N1Cc2nc(-c3cc(-c4cc(Cl)cnc4Cl)c(F)cc3F)n(-c3ccncn3)c2C1`, the inhibition was 9.1% (cell-free assay, inhibitor; 1 µM).
For `COc1cc(Nc2nc(C)cc(-c3cnn4nc(OC)ccc34)n2)cc(C(F)(F)F)c1`, the remaining activity was 85% (inhibitor; 1 µM; relative to: control).
The remaining binding of `C[C@]1(O)CCCN(c2nc(Nc3ccc(S(=O)(=O)N[C@H]4CC[C@H](CN5CCN(c6ccc(C7CCC(=O)NC7=O)cc6F)CC5)CC4)cc3)ncc2C(F)(F)F)C1` (some centres unmarked) is reported as 6.7% (binding, competition with immobilised ligand; 1 µM).
With `COc1c(Cl)cccc1Nc1c(-c2ccncc2C#C[C@@]2(C)CCCN2C(=O)/C=C/CN(C)C)[nH]c2c1C(=O)NCC2` the remaining binding was 75% (binding, competition with immobilised ligand; 3 µM).
With `CC(C)=CC1OC(C)(C)C2C=C3C(=O)C(Cl)=CC(O)C3C3C(O)C4OC4C(=O)C132` (centres unmarked) the remaining binding was 85% (cell-free assay, competition with immobilised ligand; 10 µM).
For `COc1cc(Nc2nccc(-c3cnn4nc(OC)ccc34)n2)cc(C(F)(F)F)c1`, the remaining binding was 94% (binding, competition with immobilised ligand; 1 µM).
With `Cc1cnc2nc1Nc1cccc(c1)COC/C=C/COCc1cc(ccc1OCCN1CCOCC1)N2` the remaining binding was 73% (binding; 0.1 µM).
The inhibition of `NC(=O)[C@@H](O)C[C@H]1CCc2sc3ncnc(O[C@H]4CC[C@H](N5CCOCC5)CC4)c3c21` is reported as 5% (enzyme activity, inhibitor; 10 µM).
With `CNC1C[S+]2CC[S+]3CC[S+](C1)[Ru-4]321([N]=C=S)[n]2c3ccc(OC)cc3c3c4c(c5cc(F)c[n+]1c5c32)C(=O)NC4=O` (centres unmarked) the remaining binding was 100% (KinomeScan; 0.1 µM; relative to: untreated).

Excerpt of the above:
`CCn1cc(C(=O)O)c(=O)c2c(N)c(F)c(NC3CCCCC3)cc21` has an inhibition of 4% (kinase activity; 0.1 µM, with: ATP at Km).
`Cc1ccc(-c2c(/C=C(\C#N)C(=O)NC(C)C)n(CCCO)c3ncnc(N)c23)cc1` has a remaining binding of 81% (cell-free assay, competition with immobilised ligand; 1 µM).
The inhibition of `CN1CCN(Cc2ccc(-c3ccc(CO[C@H]4CCC[C@@H]4NC(=O)c4cc(-c5cnn(C)c5)cnc4N)cc3)cc2)CC1` is reported as -8% (enzyme activity, inhibitor; 0.1 µM).
